# Published values from different studies.
# Every numbered part comes from another study and shows a few of its results, in no order. Changes are numbered by the printed parent chain.

# Block 1
# Target: ABI1, truncated, D143A, DHFR fusion (Arabidopsis thaliana)
# Technique: DHFR PCA, deep sequencing
# Sample: yeast
# Notes: methotrexate growth selection, single substitutions
# Together with: (+)-ABA 1.4 µM
# Relative to: wild-type fitted maximum
# Direction: higher = stronger binding
# Starting sequence: PYL1, truncated, DHFR fusion (Arabidopsis thaliana); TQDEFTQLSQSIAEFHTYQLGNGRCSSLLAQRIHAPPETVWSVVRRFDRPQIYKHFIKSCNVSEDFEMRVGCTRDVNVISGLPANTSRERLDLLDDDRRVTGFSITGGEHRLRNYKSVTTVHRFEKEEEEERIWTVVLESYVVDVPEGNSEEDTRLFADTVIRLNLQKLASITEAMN; partner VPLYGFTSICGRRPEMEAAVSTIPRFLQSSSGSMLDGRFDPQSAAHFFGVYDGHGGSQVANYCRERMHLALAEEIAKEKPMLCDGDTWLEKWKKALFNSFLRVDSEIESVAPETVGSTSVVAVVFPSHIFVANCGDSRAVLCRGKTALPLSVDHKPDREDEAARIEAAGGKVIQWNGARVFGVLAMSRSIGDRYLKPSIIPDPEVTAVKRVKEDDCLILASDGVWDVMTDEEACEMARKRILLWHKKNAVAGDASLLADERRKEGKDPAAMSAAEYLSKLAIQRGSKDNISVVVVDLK
Variant,relative binding score
R99Q,34.4%
L156T,69.7%
E147V,35.2%
L94F,63.7%
F47Y,2.03%
Q7N,51.5%
E174R,2.06%
V142T,44.9%
A35W,-15.3%
L94P,-6.44%
S117K,1.72%
R90V,34.8%
H55Q,92.8%
E130V,53.4%
K58N,14%
D92A,-0.6%
T101H,-0.507%
R163P,17.5%
F56Y,7.36%

# Block 2
# Target: Fragile X messenger ribonucleoprotein 1, C-terminal low-complexity region (Fmr1, Mus musculus, UniProt P35922)
# Technique: RNA Bind-n-Seq
# Form: RNA
# Sample: in vitro
# Concentration: 200 nM
# Notes: whole 134-nt RNA, ends assumed
# Together with: 150 mM LiCl
# Relative to: input library
# Direction: higher = stronger binding
# Library: 7-deaza-guanosine replaces G
# Constant ends, left off below: GGGAGUUCUACAGUCCGACGAUC … UGGAAUUCUCGGGUGUCAAGG
Oligonucleotide,log2 enrichment
UCAAGUCCUGUGCUACACAUCGUAUGUACCGAAUCGGGCCCGGCCCGGCCCGGGAAAGUAUUAUGUUACGCCGUUCGGAUCUGCACUUCC,-1.59
AAGUCCUGUGCUACACAUCGUAUGUACCGAAUCGGGGAAAAAGGGGAGGGGAGGGGAAAGUAUUAUGUUACGCCGUUCGGAUCUGCACUU,0.595
CUCAAGUCCUGUGCUACACAUCGUAUGUACCGAAUCGGAAGGAAGGGAAGGGGAAAGUAUUAUGUUACGCCGUUCGGAUCUGCACUUCCA,-0.0752
CACAGACAACACGCACCCACACAGACACAGAGGGAAGGGGUUGGGAUGGGGACAGGGUGCACAGCAUGGCGGGGUAGGACCCCAGCCCCU,0.0958
UGCUGCGGAAGGGCUCUGGCACUCUGUGUGAGGCCUUGCUGAUGGUGCAGGCCUUCCACGCCAACAUCAUCUUCCCCAACAAGCAAGAGC,-1.49
UGGCCCUGGUGGCAUGCGGGGAGGAAGAGGUGGCCUCAUGGAUCGUGGUGGUCCCGCUGGAAUGUUCAGAGGUGGCCGUGGUGGAGACAG,-0.593
CAAGUCCUGUGCUACACAUCGUAUGUACCGAAUCGGAAAAAAAGGAAAGGUUUGGAAAGUAUUAUGUUACGCCGUUCGGAUCUGCACUUC,-2.52
UCAAGUCCUGUGCUACACAUCGUAUGUACCGAAUCGGAAAGGUUUUUGGUUUGGAAAGUAUUAUGUUACGCCGUUCGGAUCUGCACUUCC,-2.26
GUCCUGUGCUACACAUCGUAUGUACCGAAUCGGGAAAAAGGGUUUUUGGGAAAAAGGGAAAGUAUUAUGUUACGCCGUUCGGAUCUGCAC,-1.64
UCGGACGCCGCCAACCUGCACGAGUUCCACGCGGACCUGCGCUCAUGCUUUGCACCCCAGCACAUGGCCAUGCUGUGUAGCCCCAUCCUC,0.405
AGUCCUGUGCUACACAUCGUAUGUACCGAAUCAAAUUUAAACCCCCAAACCCCCAAAAAAGUAUUAUGUUACGCCGUUCGGAUCUGCACU,1.03

# Block 3
# Target: NFE2, bZIP domain (human)
# Technique: DHFR protein complementation
# Sample: yeast
# Notes: single substitutions, most at no-binding floor
# Relative to: wild-type JUN-FOS pair
# Direction: higher = stronger binding
# Starting sequence: JUN, bZIP domain (human); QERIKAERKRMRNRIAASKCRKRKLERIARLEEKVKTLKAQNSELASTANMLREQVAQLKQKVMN; partner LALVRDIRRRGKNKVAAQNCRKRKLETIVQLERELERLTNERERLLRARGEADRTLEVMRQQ
Variant,binding fitness [natural log]
I28E,-1.38
E44M,-1.54
E33A,-1.4
T48M,-1.49
K39F,-1.08
I28V,-1.48
A40R,-1.39
K36T,-1.46
K39G,-1.47
L52S,-1.52
T37W,-1.37
E33T,-1.44
L52M,-1.31
L52W,-1.47
K39D,-1.44
T48I,-1.53
E44N,-1.49
R30P,-1.43
L38P,-1.52
Q55A,-1.38
V35M,-1.48
A57V,-1.42
L31S,-1.45
R53G,-1.41

# Block 4
# Target: CCND1, cyclin fold, Cln2 fusion (human)
# Technique: yeast growth competition, sequencing
# Sample: yeast
# Notes: weak parent motif
# Relative to: not given
# Direction: higher = stronger binding
# Starting sequence: TICRR docking peptide (human); TKVRRNLFNQELL; partner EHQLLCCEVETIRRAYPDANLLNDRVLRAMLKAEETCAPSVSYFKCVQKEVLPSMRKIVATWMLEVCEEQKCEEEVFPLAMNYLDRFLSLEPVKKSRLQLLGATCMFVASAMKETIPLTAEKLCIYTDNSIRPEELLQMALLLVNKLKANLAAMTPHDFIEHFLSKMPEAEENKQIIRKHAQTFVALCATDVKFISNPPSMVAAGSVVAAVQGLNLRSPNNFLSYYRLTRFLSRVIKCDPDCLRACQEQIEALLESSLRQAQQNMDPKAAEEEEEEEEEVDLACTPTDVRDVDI
Variant,normalised enrichment score
TKVRRNLFNQELA [L13A],0.441
TKVRRNLFNAELL [Q10A],-0.596
TKVRKNLLNQELL [R5K F8L],0.285
TKVRKNLFNQELL [R5K],0.163
TKVRANAFNQELL [R5A L7A],0.11
TKVRRNLFAQELL [N9A],0.487
TKVRRNLFNQEAL [L12A],0.0599
TKVRRNAFNQELL [L7A],-0.0913
TKVRRNLANQELL [F8A],-0.258
TKVARNLFNQELL [R4A],0.224

# Block 5
# Target: RING finger protein unkempt homolog, zinc fingers 1-6, SBP tag (UNK, Homo sapiens, UniProt Q9C0B0, residues 30-357)
# UniProt Q9C0B0, sequence (30-357, looked up): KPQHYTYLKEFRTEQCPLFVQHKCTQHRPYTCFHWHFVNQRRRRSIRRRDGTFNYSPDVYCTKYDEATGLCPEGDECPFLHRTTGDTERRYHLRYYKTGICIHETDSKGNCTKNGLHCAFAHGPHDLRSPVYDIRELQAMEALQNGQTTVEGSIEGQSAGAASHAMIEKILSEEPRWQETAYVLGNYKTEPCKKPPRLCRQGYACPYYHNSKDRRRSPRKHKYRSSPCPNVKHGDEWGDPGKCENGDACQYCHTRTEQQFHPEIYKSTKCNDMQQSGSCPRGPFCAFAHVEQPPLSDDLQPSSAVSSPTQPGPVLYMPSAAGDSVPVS
# Technique: RNA Bind-n-Seq
# Form: RNA
# Sample: in vitro
# Concentration: 100 nM
# Notes: RNA with constant flanks, vertebrate orthologous sites, ends assumed
# Relative to: input RNA pool
# Direction: higher = stronger binding
# Constant ends, left off below: GGGAGUUCUACAGUCCGACGAUC … CAACAGAGGAUUGAGCAUCA
Oligonucleotide,bound/input enrichment [ratio]
ACGCUUUGAUAUUAAAUUUGACAUAAGAAGCAGCUGAUUGUAAGCACAACUCUCUCCUCCUAGCCAUUUAAAAAGGUAAAAGACAAAAAAGAAAACCUACUAGUCUUGAACAAACUGUCA,0.957
CUCGUUGCUCCCCUGUGAGGGAGUGGAGGGAGCCCAGGAUAACCCUCAGCUGUUCCAGUCCAGUAUUUUUUCUUUUUAAAAAAUUACUGUAUUUAUUAUGACGACGGUAGCUCCCCAAUG,0.392
AGCAACUCAAGGAUUGAGGACUGGUUUUACAAAUAUACCAAGUAGAUAUGGAACUAAUAAUAGAAUUGGACAACCAAGACCAUGAUGGACUCUAACUUAUUUUUAUGAGGAAUAUUGACU,0.419
CAGUGCCAUGGUGGAUGGCUCUGAGCUCAAAAAAGUGCGAUCCAAUUCGCGCAUUUACCAUCGCUACUUUCUCCUUGAUGCCGACAUGCAGUCUUUGAGAUGGGAGCCUUCAAAGAAGGA,0.215
UUCAGGCUCAACUGACUGUUUCACAGCAUUCCUUACACAGCUAUUUAACAAGUACAGGUGGAGUUAAUUUUCAGGAUACAUCUAGGCACUCAGCAUUAUCUUGCAGCCCAGUUGGAGAUG,0.488
CCAGAGGCACUUUCUCCUUCGGUCUUUCGUUAUAAGAAGAAAUGGACCCAUGCACAUUUAUAUAGCUUUCUAAUAGCAUUAAAACCAAUGCCUUUUUUAGACUCCUAUUUUUGAUGUAUA,0.377
AGGGACGCUUUGAUGUAAAAAUUGAAGUUAAGAGCUGAUCACAAGCACAAAUCUUUCCCACUAGCCAUUUAAAAAGUUAAAGAUACAAAAACCUACUAGUCUUGAACAAACUGUCAUACG,1.55
AAAUAUACUUCAUGCCAUGGACUCCAUAUCGCACCGAUACUUUGAUAGAAUAUGCUUCUUUAGAGGACUUCCAAAACGGACGCCAGCAGACAACAUAUAAACUCCCAAAUCGAGUGGAUG,1.03
CUACUAUAAACAACUCAGGGCAGUAUUCUCGAUAUCCUUACAGUAACCUAAAUCAGGGAUUAGUUAACAAUACAGGGAUAAAUCAGAAUUUAGGCCUUACAAAUAACACUCCAAUGAAUC,1.18
GAGCUAAAGGAGUUAGCAUCUUUAUUUUUGUAUCAAAGAUAAAGGUUAUUUUGAAAUUAUUAGGAUUUUUACACAACUCUGAAAUCUGUUGCUUUUGUAAACAAAUUGUUUGAUCGUAGG,0.575
UCCCAGCACUCUGAUAAAAAGUGUGGACUGGUUGCUUGUAUUUUCCUUAUUCUUUUUAAUUAGCUUUAUUAUGUAUGCUACCAUUCGAACUGAGAGCAUUCGGUGGCUAAUUCCAGGACA,0.999

# Mixed results
Molecule,target,assay,system,setting,how to read,quantity,result
"PhoQ, residues 284 288 289 292 302 303 TSTLRA","PhoP, residues 12 14 15 18 19 AQCLL (Escherichia coli, UniProt P23836)","Sort-seq, item: YFP reporter",E. coli,"PhoQ-PhoP variant library, together with: 10 µM Mg2+","relative to: high Mg2+ state, higher = stronger signaling",fold induction,0.441

# Excerpt of the above (block 2):
Oligonucleotide,log2 enrichment
UCAAGUCCUGUGCUACACAUCGUAUGUACCGAAUCGGGCCCGGCCCGGCCCGGGAAAGUAUUAUGUUACGCCGUUCGGAUCUGCACUUCC,-1.59
AAGUCCUGUGCUACACAUCGUAUGUACCGAAUCGGGGAAAAAGGGGAGGGGAGGGGAAAGUAUUAUGUUACGCCGUUCGGAUCUGCACUU,0.595
CUCAAGUCCUGUGCUACACAUCGUAUGUACCGAAUCGGAAGGAAGGGAAGGGGAAAGUAUUAUGUUACGCCGUUCGGAUCUGCACUUCCA,-0.0752
CACAGACAACACGCACCCACACAGACACAGAGGGAAGGGGUUGGGAUGGGGACAGGGUGCACAGCAUGGCGGGGUAGGACCCCAGCCCCU,0.0958
UGCUGCGGAAGGGCUCUGGCACUCUGUGUGAGGCCUUGCUGAUGGUGCAGGCCUUCCACGCCAACAUCAUCUUCCCCAACAAGCAAGAGC,-1.49
UGGCCCUGGUGGCAUGCGGGGAGGAAGAGGUGGCCUCAUGGAUCGUGGUGGUCCCGCUGGAAUGUUCAGAGGUGGCCGUGGUGGAGACAG,-0.593
